Measured values from different studies.
Parts stem from different laboratories: compare values within a part only. Positions count from the first letter of the parent shown.

Block 1
Target: CCNB1, cyclin fold, Cln2 fusion (human)
Technique: yeast growth competition, sequencing
Medium: yeast
Setting: strong parent motif
Reference: not given
Reading: higher = stronger binding
Starting sequence: CDC42EP1 docking peptide (human); SLVVGKLSFDSSP
Variant | normalised enrichment score
SLVAGKLSFDSSP [V4A] | 0.816
SLAVGKLSFDSSP [V3A] | 0.889
SLVVGKASFDSSP [L7A] | -0.293
SLVVGKLSADSSP [F9A] | -0.552
SLVVGKLSFDSAP [S12A] | 1.49
SLVVGKLSFASSP [D10A] | 0.423

Block 2
Target: Ras GTPase-activating protein-binding protein 1, C-terminal RGG region (G3BP1, Homo sapiens, UniProt Q13283)
UniProt Q13283, sequence (whole entry, looked up): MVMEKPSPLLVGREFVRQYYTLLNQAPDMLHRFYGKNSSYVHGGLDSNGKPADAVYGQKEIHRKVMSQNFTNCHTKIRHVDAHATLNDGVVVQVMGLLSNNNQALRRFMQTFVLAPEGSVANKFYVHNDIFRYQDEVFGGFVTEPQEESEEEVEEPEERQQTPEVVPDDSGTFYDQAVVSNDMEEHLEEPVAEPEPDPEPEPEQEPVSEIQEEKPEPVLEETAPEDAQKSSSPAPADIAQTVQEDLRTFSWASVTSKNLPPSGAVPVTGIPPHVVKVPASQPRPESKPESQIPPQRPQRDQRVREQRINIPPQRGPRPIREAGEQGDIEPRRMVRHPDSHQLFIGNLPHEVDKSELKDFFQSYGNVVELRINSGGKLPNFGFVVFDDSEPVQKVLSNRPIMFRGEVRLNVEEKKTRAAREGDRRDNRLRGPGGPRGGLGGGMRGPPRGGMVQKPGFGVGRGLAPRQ
Technique: RNA Bind-n-Seq
Molecule type: RNA
Medium: in vitro
Concentration: 1 µM
Setting: whole 134-nt RNA, ends assumed
Added: 150 mM KCl
Reference: input library
Reading: higher = stronger binding
Shared flanks, not repeated: GGGAGUUCUACAGUCCGACGAUC … UGGAAUUCUCGGGUGUCAAGG
Oligonucleotide | log2 enrichment
CACAGACAACACGCACCCACACAGACACAGAGGGAAGGGGUUGGGAUGGGGACAGGGUGCACAGCAGGGCGGGGUAGGACCCCAGGCCCU | -0.946
UCCUAGUCCUAGGAAAACUCCAGUUGCCAGUGAUCAACGCCGUAGGUCCUGCAAAACAGCCCCUGCUUCCAGCAGCAAAUCUCAGACAGA | -0.524
CACAGACAACAAAAACCCACACAGACACAGAGGGAAGGGGUUGGGAUGGGGACAGGGUGCACAGCAGGGCGGGGUAGGACCCCAGCCCCU | -0.255
AAGUCCUGUGCUACACAUCGUAUGUACCGAAUCGGAAAAAGGAAAAAGGAAAAAGGGAAAGUAUUAUGUUACGCCGUUCGGAUCUGCACU | -1.92
UUCAGUUAUUCAAGCGGAGAAAUGUUGCUACAGCAGAAGAAGAAACAGAAGAAGAAGUUAUGUCAGAUGGAGGCUUUCAUGAGGCUCAGA | -2.56
UCAAGUCCUGUGCUACACAUCGUAUGUACCGAAUCGGGCCGGGCCGGGCCGGGGAAAGUAUUAUGUUACGCCGUUCGGAUCUGCACUUCC | 0.524
AAGUCCUGUGCUACACAUCGUAUGUACCGAAUCGGGUUUGGGAAAAAAAGGGAGGGAAAGUAUUAUGUUACGCCGUUCGGAUCUGCACUU | 1.24
UAACUUUAGAGGAGGAUCUGAUGGAUAUGGCAGUGGACGUGGAUUUGAGGAUGGCUAUAAUGGGUAUGGAGGAGGACCUGGAGGUGGCAA | -1.15
AAGUCCUGUGCUACACAUCGUAUGUACCGAAUCGGGGAAAGGGGUGGGGAAAGGGGAAAGUAUUAUGUUACGCCGUUCGGAUCUGCACUU | 2.29
CCCAUGCAGGUGGGCAUCUUUGGGAAGUGGGGCAAGGGGGGGAUAGGGAGGGGGGUAACACUUUGGGAACAGGUGGUCCCAGGUCGUUUC | -1.02
AUCAUUUCAUUUUUAUAAUUAUACAUUAGACAUUGGCACUUGUGUAAAACUGUCCCUGCAGAUUGAGCAGGAAGUAAAAACAAAUGGAAA | -1.16
GUCCUGUGCUACACAUCGUAUGUACCGAAUCGGGUUUUUUUGGGAAAAAGGGAAAGGGAAAGUAUUAUGUUACGCCGUUCGGAUCUGCAC | -0.602
UCCUGUGCUACACAUCGUAUGUACCGAAUCAAACCCAAAUUUUUUUAAAUUUUUUUAAAAAAGUAUUAUGUUACGCCGUUCGGAUCUGCA | -0.864
AGUCCUGUGCUACACAUCGUAUGUACCGAAUCGGCCCCCGGCCCCCGGGGCCCCCGGGAAAGUAUUAUGUUACGCCGUUCGGAUCUGCAC | -1.64

Block 3
Target: RNA binding protein fox-1 homolog 2, RRM domain, GST-SBP tag (RBFOX2, Homo sapiens, UniProt O43251-10, residues 100-194)
Technique: RNA Bind-n-Seq
Molecule type: RNA
Medium: in vitro
Concentration: 365 nM
Setting: natural RNA segment, single round, ends assumed
Reference: no-protein control
Reading: higher = stronger binding
Shared flanks, not repeated: GGGAGUUCUACAGUCCGACGAUC … UGGAAUUCUCGGGUGCCAA
Target sequence (chain): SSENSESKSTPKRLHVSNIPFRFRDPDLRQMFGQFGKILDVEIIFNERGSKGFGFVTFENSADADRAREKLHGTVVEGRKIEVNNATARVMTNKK
Oligonucleotide | RBNS enrichment (R)
CUUAAAUAUAAGACAACAGGAAAUUUAUAUAGGAAACAUUUUCAUUCCACUUGUAUAAUUUAAGUCUUAGCUCUUUCAGAUGCAAGAAACUUAUACUAUUAAAAUUGUUG | 0.658
CAGUUUGAAGACAGAAGUGUACUCUCUACAAUGCAAUUUACUGUACAGUUAGAAAGCAAAGUGUUAAAUGGAGAAGAUACUUGUUUUUAUUAAACAUUUUGAGAUUUAGA | 0.416
CCGCUGCUCUGGAGGCGGAGCUUAAUGACCUCAUGUGACUUGGACCCGCCCCAUACCAGCCCUUGGCUUGGGUCCUUUUUCUCCAGAAAAACAUAUAUUUUGCAGAGCUC | 0.414
AGCUUGAAUGGGCUGUCGGGGGACACUGGAAGGGAGUAAGCAGCUUUUUGAAAAUGUUAAUACAUUACUCUGCUAAUAUGCUGACCUGCACUAAUGCACCCCUGUGAGGG | 0.271
GAGUUGGGAGGACAAUUUCACUUGAACAGGUUUCUGUUCUUCUGAGGUCAGGGUGGGGAGGAUGUCCAGGUGACUUUUAUGGACACAUUGCAAGACAGUAAGCCGCGGAU | 0.747
GCUACAGAAAGCAGGACUAGGAACUGGAAAUAACUUUGGGUCCUGCCUUCAUUAGGACGUUCUUUUUAGAAGCAGUUCUUCCAGCUCUGGAUCAUAGAGUGACCUUUAAU | 0.208
AGAAUCAGCUAGCUAGCCAGGGGCCAUCCUGUGGGUCAGUAGAUGAGGUGUGUCCUGGCCCUGCGGAGAGAAGAGGCCUGUGGUUCAGCUGGCACGCUCUGCUCCAGGCU | 0.609
AGUUUGGUGGCCCAAGUCCUGAACCCCUCUUAGACCAGGUGAGGUGCAGAGGUGGUUGCUGCUUCCAGUUUCCCUUCAGACUUAGCUGUGUGAACCCCACUCCUAUCCUU | 0.508
UAAUAGCCCUUCCAUCUGGCAGUGGGGGUAGAAUACACUCUUGACAUUCUUGUCUCCUGCUUUAGAAUGCUAGUGUGUAUCUAUCAUGUAUGCAAUACUUUCCCCCUUUU | 0.487
CUUAGAGCCUUCACACGUGAGCACUAGGCCAUCUUAGCAGAACCCCCAUCUGGCAGCACAUGCCAAGUUUCAGGAGGAUUGGGGGGAGGCGGGUGCAGGCUUGAGAAGAA | 0.848
ACAACUUCUGACCUGUUGAGGGCAGAACAAAACUAUGCCUCCGUCCACCGUGGUGUUUCUGCAGGGCCCAGAGCUAAGAACAAACAAAGUUAUAAGAACGUACACAGUGA | 0.53
ACAUGCCACCCCCUCAGAGGACGUCAGUUCAGGGCACGUCUCAAUAUGAGUCAAGUGCCAGCUGGACCUGAGGCCUGCUUCCCCGCGUGCGGGGCAGAGGCCCUUCUCUG | 0.18

Block 4
Target: Histone acetyltransferase KAT6A, both winged helices, GST fusion (KAT6A, Homo sapiens, UniProt Q92794, residues 1-181)
Technique: protein binding microarray
Molecule type: double-stranded DNA, one strand shown
Medium: in vitro
Concentration: not given
Setting: 8-mer, flanks averaged, mean of 2 arrays, mostly near background
Reference: not given
Reading: higher = stronger binding
Residues (chain): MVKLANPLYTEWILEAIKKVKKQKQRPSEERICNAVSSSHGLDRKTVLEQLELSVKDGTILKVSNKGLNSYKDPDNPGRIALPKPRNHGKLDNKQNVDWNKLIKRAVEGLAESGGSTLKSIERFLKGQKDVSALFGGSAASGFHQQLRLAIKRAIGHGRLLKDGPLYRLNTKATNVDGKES
Oligonucleotide | E-score
CACTAAAA | 0.0814
GGTCATTA | 0.115
AAACGTCG | 0.139
ATCCGTTC | 0.19
ACACGGCC | 0.23
GCCCCGCC | 0.201
CGCTTGCC | 0.224
TAAAATGA | -0.106
ATGAGACC | -0.0297
AAGGCACG | -0.00377
ACCTCCGC | 0.0693
GAATGTCA | -0.157
AACGGTTG | -0.0685
AAAGCTCC | -0.0333
GTAGAAGA | -0.0945
CATGATGG | -0.27
AAAACACC | 0.0264

Block 5
Target: Interferon regulatory factor 3, full length, phosphomimetic (IRF3, Homo sapiens, UniProt Q14653, residues 1-427, S386D/S396D/S398D/S402D/T404D/S405D)
Technique: protein-binding microarray
Molecule type: double-stranded DNA, one strand shown
Medium: in vitro
Concentration: 2540 nM top
Setting: 60-bp whole probe
Added: salmon DNA 0.4 mg/ml
Reference: random background probes
Reading: higher = stronger binding
Shared flanks, not repeated: GCCTAGCAC … GTCTTGATTCGCTTGACGCTGCTG
Construct (chain): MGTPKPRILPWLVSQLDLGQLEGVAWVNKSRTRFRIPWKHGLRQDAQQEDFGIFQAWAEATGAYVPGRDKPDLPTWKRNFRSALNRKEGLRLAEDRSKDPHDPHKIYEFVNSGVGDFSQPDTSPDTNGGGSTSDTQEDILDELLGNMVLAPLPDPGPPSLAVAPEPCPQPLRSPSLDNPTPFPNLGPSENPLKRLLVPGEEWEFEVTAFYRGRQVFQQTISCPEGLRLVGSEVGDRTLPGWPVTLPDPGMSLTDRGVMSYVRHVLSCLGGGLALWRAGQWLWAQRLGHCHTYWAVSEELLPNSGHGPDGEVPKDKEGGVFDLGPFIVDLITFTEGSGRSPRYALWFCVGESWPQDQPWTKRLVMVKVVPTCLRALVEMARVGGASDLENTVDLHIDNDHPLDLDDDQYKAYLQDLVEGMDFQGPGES
Oligonucleotide | fitted relative affinity [z-score]
GACGATATCAGTATCGAGAAGTGCTAG | 1.06
GCCGGTATCGGGACTGGGGACGTGCTA | 2.06
TTAGGTTTCCTTTCGCTTTAGTGCTAG | 9.06
GAAGGTCTCCTACTGCTGACGTGCTAG | 0.552
TCACTCACTCACAGACTCACGTGCTAG | 0.101
TTAGATTTCAGTCTAGATTAGTGCTAG | 1.54
GACGATTTCGGGTATCGCGACGTGCTA | 1.57
GACGATATCGGGTATCGAGAGGTGCTA | 0.0904
GACGCTTTCGGTTCCGGGACGTGCTAG | 6.42
GAAGAACTGGGGACTGGAGACGTGCTA | -0.91
CTAGGTCTCCTTCTCCTTTAGTGCTAG | 3.8
TCCAAATTGTCTCTGTCCCTGTGCTAG | 0.714
GAGGGACTGGGGACTGGGGACGTGCTA | -1.21
GAACTTTGGCCTCTAGGTTTGTGCTAG | -0.716
CCTATCTTATGATATATATAAGTGCTA | 1.79

A few entries again (block 3):
Oligonucleotide | RBNS enrichment (R)
GCUACAGAAAGCAGGACUAGGAACUGGAAAUAACUUUGGGUCCUGCCUUCAUUAGGACGUUCUUUUUAGAAGCAGUUCUUCCAGCUCUGGAUCAUAGAGUGACCUUUAAU | 0.208
ACAACUUCUGACCUGUUGAGGGCAGAACAAAACUAUGCCUCCGUCCACCGUGGUGUUUCUGCAGGGCCCAGAGCUAAGAACAAACAAAGUUAUAAGAACGUACACAGUGA | 0.53
AGUUUGGUGGCCCAAGUCCUGAACCCCUCUUAGACCAGGUGAGGUGCAGAGGUGGUUGCUGCUUCCAGUUUCCCUUCAGACUUAGCUGUGUGAACCCCACUCCUAUCCUU | 0.508
CAGUUUGAAGACAGAAGUGUACUCUCUACAAUGCAAUUUACUGUACAGUUAGAAAGCAAAGUGUUAAAUGGAGAAGAUACUUGUUUUUAUUAAACAUUUUGAGAUUUAGA | 0.416
ACAUGCCACCCCCUCAGAGGACGUCAGUUCAGGGCACGUCUCAAUAUGAGUCAAGUGCCAGCUGGACCUGAGGCCUGCUUCCCCGCGUGCGGGGCAGAGGCCCUUCUCUG | 0.18
UAAUAGCCCUUCCAUCUGGCAGUGGGGGUAGAAUACACUCUUGACAUUCUUGUCUCCUGCUUUAGAAUGCUAGUGUGUAUCUAUCAUGUAUGCAAUACUUUCCCCCUUUU | 0.487
GAGUUGGGAGGACAAUUUCACUUGAACAGGUUUCUGUUCUUCUGAGGUCAGGGUGGGGAGGAUGUCCAGGUGACUUUUAUGGACACAUUGCAAGACAGUAAGCCGCGGAU | 0.747
CUUAAAUAUAAGACAACAGGAAAUUUAUAUAGGAAACAUUUUCAUUCCACUUGUAUAAUUUAAGUCUUAGCUCUUUCAGAUGCAAGAAACUUAUACUAUUAAAAUUGUUG | 0.658
